Results of several laboratories.
A part holds a random share of what one study measured.
Sequence of UniProt P29322 (whole entry, looked up): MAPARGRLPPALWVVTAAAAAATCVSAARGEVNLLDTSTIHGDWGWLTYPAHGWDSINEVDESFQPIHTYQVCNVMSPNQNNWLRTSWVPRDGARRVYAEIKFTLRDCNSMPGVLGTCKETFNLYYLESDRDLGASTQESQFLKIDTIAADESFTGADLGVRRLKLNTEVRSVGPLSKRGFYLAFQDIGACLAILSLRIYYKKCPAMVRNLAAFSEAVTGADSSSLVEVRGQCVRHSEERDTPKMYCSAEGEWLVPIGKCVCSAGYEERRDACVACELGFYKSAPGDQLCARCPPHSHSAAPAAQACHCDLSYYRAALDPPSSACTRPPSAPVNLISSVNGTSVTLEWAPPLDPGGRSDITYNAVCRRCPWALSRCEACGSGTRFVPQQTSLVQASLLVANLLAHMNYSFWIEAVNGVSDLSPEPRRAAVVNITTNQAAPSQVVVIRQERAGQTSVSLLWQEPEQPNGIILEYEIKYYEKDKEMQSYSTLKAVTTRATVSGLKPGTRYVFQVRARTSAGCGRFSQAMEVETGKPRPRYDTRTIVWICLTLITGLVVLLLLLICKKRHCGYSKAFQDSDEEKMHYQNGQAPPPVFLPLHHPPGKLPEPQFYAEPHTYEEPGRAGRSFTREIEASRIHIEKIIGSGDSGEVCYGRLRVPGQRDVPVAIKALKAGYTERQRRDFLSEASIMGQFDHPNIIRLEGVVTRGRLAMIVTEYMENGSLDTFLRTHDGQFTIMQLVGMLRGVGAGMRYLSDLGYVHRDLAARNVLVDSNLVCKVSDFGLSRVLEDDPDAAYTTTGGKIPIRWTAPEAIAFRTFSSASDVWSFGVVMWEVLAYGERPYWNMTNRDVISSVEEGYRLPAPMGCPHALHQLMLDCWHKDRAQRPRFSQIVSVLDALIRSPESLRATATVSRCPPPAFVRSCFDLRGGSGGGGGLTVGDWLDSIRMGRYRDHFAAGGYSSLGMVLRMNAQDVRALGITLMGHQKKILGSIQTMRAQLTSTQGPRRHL
Sequence of UniProt Q00536 (whole entry, looked up): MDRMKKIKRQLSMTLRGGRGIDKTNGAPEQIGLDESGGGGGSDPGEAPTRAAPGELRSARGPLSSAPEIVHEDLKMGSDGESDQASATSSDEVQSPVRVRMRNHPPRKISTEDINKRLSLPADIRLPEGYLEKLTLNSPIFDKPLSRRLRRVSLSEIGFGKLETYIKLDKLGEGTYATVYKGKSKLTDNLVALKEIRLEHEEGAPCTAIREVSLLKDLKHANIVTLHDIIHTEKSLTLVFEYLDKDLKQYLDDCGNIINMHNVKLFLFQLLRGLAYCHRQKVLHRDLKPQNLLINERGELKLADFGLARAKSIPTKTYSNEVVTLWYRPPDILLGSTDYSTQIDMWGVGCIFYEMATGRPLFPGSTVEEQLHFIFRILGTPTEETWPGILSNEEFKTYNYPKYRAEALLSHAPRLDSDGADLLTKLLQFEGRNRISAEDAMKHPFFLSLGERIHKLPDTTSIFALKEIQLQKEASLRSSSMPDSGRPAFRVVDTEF
Sequence of UniProt Q9BRS2 (whole entry, looked up): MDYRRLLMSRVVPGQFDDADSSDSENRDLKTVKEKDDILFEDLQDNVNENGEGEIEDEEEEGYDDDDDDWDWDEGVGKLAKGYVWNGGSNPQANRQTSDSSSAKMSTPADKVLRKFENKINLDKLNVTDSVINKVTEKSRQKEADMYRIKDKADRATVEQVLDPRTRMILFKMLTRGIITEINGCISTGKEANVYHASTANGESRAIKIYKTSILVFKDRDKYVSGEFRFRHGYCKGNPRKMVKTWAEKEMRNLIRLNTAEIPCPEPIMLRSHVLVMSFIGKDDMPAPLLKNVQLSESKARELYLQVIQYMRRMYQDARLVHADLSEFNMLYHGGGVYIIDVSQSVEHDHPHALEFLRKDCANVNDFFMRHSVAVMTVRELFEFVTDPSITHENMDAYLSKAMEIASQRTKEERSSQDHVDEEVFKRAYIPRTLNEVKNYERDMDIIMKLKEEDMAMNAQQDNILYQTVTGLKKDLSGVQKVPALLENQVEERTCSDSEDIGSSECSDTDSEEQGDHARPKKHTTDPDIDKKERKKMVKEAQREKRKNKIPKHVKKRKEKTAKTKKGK
Sequence of UniProt P42336 (whole entry, unmodified, looked up): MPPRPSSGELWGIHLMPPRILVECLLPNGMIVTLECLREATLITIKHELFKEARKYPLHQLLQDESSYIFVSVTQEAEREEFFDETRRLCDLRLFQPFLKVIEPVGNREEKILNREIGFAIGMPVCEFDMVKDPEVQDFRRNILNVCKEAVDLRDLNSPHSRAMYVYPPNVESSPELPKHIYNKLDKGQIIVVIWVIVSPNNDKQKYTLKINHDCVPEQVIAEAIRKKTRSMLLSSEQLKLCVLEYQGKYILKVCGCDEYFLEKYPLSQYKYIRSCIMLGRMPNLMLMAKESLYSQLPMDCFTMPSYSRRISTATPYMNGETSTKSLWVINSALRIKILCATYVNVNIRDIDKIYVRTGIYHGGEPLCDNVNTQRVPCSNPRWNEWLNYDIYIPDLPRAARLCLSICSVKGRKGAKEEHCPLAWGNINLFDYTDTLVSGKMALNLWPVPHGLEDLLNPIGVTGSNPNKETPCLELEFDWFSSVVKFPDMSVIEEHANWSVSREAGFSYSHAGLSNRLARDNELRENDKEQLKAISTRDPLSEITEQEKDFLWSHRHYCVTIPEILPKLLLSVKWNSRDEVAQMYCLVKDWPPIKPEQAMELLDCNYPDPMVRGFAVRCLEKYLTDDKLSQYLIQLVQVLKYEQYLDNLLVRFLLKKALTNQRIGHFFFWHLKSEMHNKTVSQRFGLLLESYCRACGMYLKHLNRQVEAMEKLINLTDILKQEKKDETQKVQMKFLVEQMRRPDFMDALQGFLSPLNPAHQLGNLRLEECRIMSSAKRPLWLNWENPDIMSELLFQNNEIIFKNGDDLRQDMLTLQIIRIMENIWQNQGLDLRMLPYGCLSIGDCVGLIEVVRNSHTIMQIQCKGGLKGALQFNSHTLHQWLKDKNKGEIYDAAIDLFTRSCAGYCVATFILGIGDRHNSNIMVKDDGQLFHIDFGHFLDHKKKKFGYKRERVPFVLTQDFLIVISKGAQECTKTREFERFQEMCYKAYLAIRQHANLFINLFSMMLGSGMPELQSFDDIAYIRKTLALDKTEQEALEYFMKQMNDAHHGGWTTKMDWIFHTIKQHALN
Sequence of UniProt P51956 (whole entry, looked up): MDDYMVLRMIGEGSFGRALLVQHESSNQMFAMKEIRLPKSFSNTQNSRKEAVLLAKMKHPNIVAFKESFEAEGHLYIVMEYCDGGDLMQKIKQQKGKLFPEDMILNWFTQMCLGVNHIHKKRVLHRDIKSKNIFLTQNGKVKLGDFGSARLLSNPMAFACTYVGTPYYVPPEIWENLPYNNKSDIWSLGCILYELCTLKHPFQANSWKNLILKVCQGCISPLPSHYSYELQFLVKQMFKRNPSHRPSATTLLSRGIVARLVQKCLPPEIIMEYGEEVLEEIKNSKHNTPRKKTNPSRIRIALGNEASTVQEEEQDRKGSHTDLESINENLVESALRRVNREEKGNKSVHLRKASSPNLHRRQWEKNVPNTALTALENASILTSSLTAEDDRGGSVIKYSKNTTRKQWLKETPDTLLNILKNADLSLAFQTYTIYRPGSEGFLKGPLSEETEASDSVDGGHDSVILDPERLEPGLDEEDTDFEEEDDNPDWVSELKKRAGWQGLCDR
Sequence of UniProt Q15391 (whole entry, looked up): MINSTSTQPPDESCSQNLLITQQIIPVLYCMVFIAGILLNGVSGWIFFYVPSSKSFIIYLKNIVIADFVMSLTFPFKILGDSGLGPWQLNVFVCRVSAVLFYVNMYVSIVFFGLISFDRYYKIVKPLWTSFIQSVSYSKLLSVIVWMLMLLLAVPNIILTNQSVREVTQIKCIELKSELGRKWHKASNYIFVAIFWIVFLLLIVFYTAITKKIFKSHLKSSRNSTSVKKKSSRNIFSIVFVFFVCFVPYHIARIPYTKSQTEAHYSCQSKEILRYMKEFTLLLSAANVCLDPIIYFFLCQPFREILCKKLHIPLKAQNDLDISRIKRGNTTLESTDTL

Sample 1 — observed: cell-free assay; method: competition with immobilised ligand; concentration: 1 µM
SMILES: O=C(Nc1cccnn1)N1CC(C/C=C/c2cncc(Oc3ccc(C(F)(F)F)cn3)n2)C1
The remaining binding was 100% (NEK3 (Homo sapiens, UniProt P51956)).
The remaining binding was 100% (MARK4 (Homo sapiens, UniProt Q96L34)).
It gave 100% for remaining binding (NEK5 (Homo sapiens, UniProt Q6P3R8)).
For EPHA8 (Homo sapiens, UniProt P29322): remaining binding read 100%.
MELK (Homo sapiens, UniProt Q14680) — remaining binding: 100%.

Sample 2 — observed: β-arrestin recruitment; action: agonist; method: PRESTO-Tango; concentration: 10 µM; baseline: untreated
SMILES: N=C(N)NC(=O)c1cnn(-c2cccc3ncccc23)c1C1CC1
The “fold over basal” was 1.11 (P2Y purinoceptor 14 (P2RY14, Homo sapiens, UniProt Q15391)).
For Adhesion G protein-coupled receptor A3 (ADGRA3, Homo sapiens, UniProt Q8IWK6): “fold over basal” read 0.98.
BDKRB1 (Homo sapiens, UniProt P46663) — “fold over basal”: 1.55.
The “fold over basal” was 0.76 (Probable G-protein coupled receptor 21 (GPR21, Homo sapiens, UniProt Q99679)).

Sample 3 — observed: enzyme activity; action: inhibitor; concentration: 0.5 µM; baseline: control
Target: Serine/threonine-protein kinase haspin (HASPIN, Homo sapiens, UniProt Q8TF76)
Sequence of UniProt Q8TF76 (whole entry, looked up): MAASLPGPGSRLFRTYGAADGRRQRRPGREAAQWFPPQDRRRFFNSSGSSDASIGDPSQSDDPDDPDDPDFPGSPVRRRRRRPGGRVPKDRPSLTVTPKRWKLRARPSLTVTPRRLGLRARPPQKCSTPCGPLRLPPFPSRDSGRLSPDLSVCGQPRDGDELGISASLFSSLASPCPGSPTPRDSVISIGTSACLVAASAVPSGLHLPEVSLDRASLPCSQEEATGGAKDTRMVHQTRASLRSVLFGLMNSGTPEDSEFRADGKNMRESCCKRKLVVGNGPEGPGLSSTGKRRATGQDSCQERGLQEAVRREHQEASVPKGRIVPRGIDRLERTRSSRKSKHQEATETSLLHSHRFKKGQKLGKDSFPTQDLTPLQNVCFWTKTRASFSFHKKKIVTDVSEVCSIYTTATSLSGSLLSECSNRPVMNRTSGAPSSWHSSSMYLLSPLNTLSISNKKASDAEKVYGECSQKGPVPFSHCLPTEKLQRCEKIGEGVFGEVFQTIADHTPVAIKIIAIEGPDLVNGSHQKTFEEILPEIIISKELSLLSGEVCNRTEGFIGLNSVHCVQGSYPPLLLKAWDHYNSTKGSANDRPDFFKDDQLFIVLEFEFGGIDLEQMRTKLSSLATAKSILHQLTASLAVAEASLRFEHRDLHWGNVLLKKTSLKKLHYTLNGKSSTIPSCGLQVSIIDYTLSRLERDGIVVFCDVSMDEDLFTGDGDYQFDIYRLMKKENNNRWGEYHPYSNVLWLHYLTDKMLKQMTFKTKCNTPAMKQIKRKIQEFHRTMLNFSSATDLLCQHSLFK
For `O=S(=O)(c1cccc2cnccc12)N1CCCNCC1`, the remaining activity was 86.6%.
`OCC(O)CCON=C1C(c2c(O)[nH]c3ccccc23)=Nc2ccccc21` (stereo not shown) has a remaining activity of 32.8%.
`Cc1cccc(-c2[nH]c(C(C)(C)C)nc2-c2ccc3c(c2)OCO3)n1` has a remaining activity of 78.7%.
`CN(C)c1ccc(C=C2C(=O)Nc3ccccc32)cc1` gave a remaining activity of 88.5%.
`Cn1c2ccccc2c2c3c(c4c5ccccc5n(CCC#N)c4c21)CNC3=O` gave a remaining activity of 27.2%.
With `N#CC(C#N)=C(N)/C(C#N)=C/c1ccc(O)cc1` the remaining activity was 90.1%.
With `C#Cc1cccc(Nc2ncnc3cc(OCCOC)c(OCCOC)cc23)c1` the remaining activity was 80.9%.
With `CO[C@H]1C[C@@H]2CC[C@@H](C)[C@@](O)(O2)C(=O)C(=O)N2CCCC[C@H]2C(=O)O[C@H]([C@H](C)C[C@@H]2CC[C@@H](O)[C@H](OC)C2)CC(=O)[C@H](C)/C=C(\C)[C@@H](O)[C@@H](OC)C(=O)[C@H](C)C[C@H](C)/C=C/C=C/C=C/1C` the remaining activity was 103%.
With `CCOC(=O)c1c(C)[nH]c(/C=C2\C(=O)Nc3ccccc32)c1C` the remaining activity was 92.9%.
`O=C1NC(=O)C(c2cn(CCCn3ccnc3)c3ccccc23)=C1Nc1ccccc1` has a remaining activity of 95.8%.
`NCCNc1ncc(C(N)=O)c(Nc2cccc(C(F)(F)F)c2)n1` has a remaining activity of 57.8%.
The remaining activity of `Nc1[nH]nc2nc3ccccc3nc12` is reported as 82.1%.
`Nc1ncnc2n[nH]c(Nc3ccc(F)cc3)c12` gave a remaining activity of 87.7%.
The remaining activity of `CC(C)[C@H](CO)Nc1nc(Nc2cc(N)cc(Cl)c2)c2ncn(C(C)C)c2n1` is reported as 99.9%.

Sample 4 — observed: cell-free assay; concentration: 1 µM
Structure (SMILES): C[C@H]1CC[C@H](n2c3cnccc3c3cnc(Nc4ccc5c(n4)CCN(C(=O)CO)C5)nc32)CC1
PIK3CA (Homo sapiens, UniProt P42336, Q546K) — remaining signal: 100%.
CDK18 (Homo sapiens, UniProt Q07002) — remaining signal: 44%.
CDK16 (Homo sapiens, UniProt Q00536) — remaining signal: 5.2%.
For RIOK1 (Homo sapiens, UniProt Q9BRS2): remaining signal read 56%.
The remaining signal was 23% (RET (Homo sapiens, UniProt P07949, M918T)).
